Published values gathered from unrelated publications.
A part holds a random share of what one study measured. Values joined by “and” are separate records of one study, mostly repeats; a detail may differ. Positions count from the first letter of the parent shown.
Chain of UniProt Q9HAZ1 (whole entry, looked up): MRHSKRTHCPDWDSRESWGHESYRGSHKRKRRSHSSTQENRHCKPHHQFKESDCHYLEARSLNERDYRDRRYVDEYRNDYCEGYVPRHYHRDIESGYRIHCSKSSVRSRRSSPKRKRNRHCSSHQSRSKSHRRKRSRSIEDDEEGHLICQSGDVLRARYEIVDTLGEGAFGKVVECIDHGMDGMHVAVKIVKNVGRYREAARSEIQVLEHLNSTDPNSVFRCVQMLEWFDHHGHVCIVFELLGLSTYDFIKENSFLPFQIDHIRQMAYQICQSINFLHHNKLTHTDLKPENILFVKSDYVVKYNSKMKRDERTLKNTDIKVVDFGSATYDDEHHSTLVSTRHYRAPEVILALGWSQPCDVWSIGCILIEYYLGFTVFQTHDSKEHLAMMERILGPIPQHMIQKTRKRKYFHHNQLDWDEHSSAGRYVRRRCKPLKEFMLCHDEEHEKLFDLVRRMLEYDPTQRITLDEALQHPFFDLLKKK
Chain of UniProt P49760 (whole entry, looked up): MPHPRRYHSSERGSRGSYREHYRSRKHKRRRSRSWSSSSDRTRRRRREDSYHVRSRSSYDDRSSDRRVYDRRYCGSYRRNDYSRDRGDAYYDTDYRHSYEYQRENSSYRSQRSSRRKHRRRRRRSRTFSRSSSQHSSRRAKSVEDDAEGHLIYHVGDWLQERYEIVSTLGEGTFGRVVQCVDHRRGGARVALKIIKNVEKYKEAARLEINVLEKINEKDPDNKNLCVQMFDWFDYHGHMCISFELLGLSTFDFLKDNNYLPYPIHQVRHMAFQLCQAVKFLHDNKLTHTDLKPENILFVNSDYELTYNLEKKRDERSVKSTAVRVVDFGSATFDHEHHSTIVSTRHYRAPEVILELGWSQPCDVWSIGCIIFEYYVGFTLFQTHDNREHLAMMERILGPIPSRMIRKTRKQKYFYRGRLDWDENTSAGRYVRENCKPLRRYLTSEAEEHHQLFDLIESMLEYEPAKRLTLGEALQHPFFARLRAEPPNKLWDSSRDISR
Chain of UniProt P33981 (whole entry, looked up): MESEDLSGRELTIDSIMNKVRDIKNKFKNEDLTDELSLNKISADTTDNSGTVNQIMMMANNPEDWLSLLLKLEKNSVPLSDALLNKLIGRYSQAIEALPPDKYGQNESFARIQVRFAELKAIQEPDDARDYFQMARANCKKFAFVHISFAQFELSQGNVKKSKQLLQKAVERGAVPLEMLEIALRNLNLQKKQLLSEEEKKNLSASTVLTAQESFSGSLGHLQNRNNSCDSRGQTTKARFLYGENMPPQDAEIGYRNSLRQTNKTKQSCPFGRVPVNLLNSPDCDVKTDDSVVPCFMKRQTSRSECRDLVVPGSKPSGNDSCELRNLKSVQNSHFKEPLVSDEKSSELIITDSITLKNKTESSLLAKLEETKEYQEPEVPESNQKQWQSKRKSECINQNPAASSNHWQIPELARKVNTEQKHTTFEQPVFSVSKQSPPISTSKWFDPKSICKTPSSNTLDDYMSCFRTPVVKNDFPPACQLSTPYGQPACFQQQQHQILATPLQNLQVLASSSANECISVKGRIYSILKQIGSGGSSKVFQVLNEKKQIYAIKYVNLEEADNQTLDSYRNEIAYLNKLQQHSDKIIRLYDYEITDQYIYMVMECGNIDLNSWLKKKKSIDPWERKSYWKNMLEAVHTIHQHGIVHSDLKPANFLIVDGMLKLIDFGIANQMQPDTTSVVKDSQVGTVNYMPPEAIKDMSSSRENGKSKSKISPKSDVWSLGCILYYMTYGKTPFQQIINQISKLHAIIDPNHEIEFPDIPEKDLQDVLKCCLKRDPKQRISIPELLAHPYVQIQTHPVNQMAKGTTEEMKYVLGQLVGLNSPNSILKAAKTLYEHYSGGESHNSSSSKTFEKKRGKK

Series 1
Structure (SMILES): C[C@@H]1CN(c2cc(-c3n[nH]c4ccc(OC5(C)CC5)cc34)ncn2)C[C@H](C)O1
MAP3K14: Mitogen-activated protein kinase kinase kinase 14 (MAP3K14, Homo sapiens, UniProt Q99558)
Chain of UniProt Q99558 (whole entry, looked up): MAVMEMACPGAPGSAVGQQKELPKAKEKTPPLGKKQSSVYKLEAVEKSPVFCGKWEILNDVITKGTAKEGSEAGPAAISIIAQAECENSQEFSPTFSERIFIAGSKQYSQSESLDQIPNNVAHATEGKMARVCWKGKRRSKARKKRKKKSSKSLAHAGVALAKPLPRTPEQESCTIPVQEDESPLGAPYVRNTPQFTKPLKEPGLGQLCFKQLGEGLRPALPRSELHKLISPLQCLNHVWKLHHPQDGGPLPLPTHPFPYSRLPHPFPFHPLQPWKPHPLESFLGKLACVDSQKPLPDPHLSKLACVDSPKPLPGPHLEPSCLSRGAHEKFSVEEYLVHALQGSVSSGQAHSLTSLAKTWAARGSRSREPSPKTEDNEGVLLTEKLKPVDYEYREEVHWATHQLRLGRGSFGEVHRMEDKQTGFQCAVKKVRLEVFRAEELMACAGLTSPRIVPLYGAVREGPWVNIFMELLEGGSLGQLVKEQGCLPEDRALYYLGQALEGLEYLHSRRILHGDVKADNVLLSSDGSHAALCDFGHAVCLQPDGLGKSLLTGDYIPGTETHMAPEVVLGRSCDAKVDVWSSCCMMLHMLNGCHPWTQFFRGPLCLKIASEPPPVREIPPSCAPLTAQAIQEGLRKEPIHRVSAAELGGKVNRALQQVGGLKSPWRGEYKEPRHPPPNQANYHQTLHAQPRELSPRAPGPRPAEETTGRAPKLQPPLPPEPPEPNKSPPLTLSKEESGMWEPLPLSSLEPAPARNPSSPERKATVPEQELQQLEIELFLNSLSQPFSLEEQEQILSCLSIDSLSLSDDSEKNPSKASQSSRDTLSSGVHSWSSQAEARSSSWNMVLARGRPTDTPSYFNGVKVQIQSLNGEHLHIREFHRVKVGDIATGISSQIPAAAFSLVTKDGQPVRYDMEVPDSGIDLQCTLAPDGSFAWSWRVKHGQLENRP
target | observed | method | matrix | EC50
Dual specificity protein kinase CLK2 (CLK2, Homo sapiens, UniProt P49760) | target engagement | NanoBRET | live cells | 0.59 µM and 2.14 µM and 3.25 µM
Dual specificity protein kinase CLK4 (CLK4, Homo sapiens, UniProt Q9HAZ1) | target engagement | NanoBRET | live cells | 25.7 µM and 41.2 µM and 4.03 µM
Dual specificity protein kinase TTK (TTK, Homo sapiens, UniProt P33981) | target engagement | NanoBRET | live cells | > 50 µM
MAP3K14 | target engagement | NanoBRET | live cells | > 50 µM
Mitogen-activated protein kinase kinase kinase 5 (MAP3K5, Homo sapiens, UniProt Q99683) | target engagement | NanoBRET | live cells | 4.33 µM and 15.2 µM and 15.9 µM
MAP3K14 | target engagement in cells | BRET | – | > 50 µM

Series 2
Target: RNA binding protein fox-1 homolog 2, RRM domain, GST-SBP tag (RBFOX2, Homo sapiens, UniProt O43251-10, residues 100-194)
Method: RNA Bind-n-Seq
Form: RNA
Matrix: in vitro
Concentration: 365 nM
Notes: natural RNA segment, single round, ends assumed
Baseline: no-protein control
Reading: higher = stronger binding
Shared flanks, not repeated: GGGAGUUCUACAGUCCGACGAUC … UGGAAUUCUCGGGUGCCAA
Residues (chain): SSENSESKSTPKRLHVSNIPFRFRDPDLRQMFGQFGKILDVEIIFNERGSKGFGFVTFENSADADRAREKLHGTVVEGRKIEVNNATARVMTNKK
Sequence | RBNS enrichment (R)
CCCAGCCUUGGUGAGCUCCAAGUUGAUGGGGGAGAGGGGAGAGUGGAGGAAAGCUCUUCUUGGUACAGUCUCCUCUUCCCACCAACUCCUCACGACUCUUCAUCAACCAA | 0.625
UGCUUUUUAGUUUUGUAUAUCAGAUGUCUAGCAGGCAUUCAGCUAAUGCAAAAACAGAUUAGUAUGUGUUCAGGUGAACUUUUACUUAAAACAUUAAACUUUGGCUCUCC | 0.236
CAACCUCUCUCUCUCUCUCUCACUGGGUGGAUAAAUUUGUGAGCCAACCAAGAAGGCUCAGCUGUCAUCACUUCAGAGAGGAAGGAAGAAUCUUCACUUAGCCUCAGACU | 0.386
UUGUAAAAGGACACCUUCACUGAAGCAAGUCGGAAAGUACAAUGAAAAUAAAUAUUUUUGGUAUUUAUUUAUGAAAUAUUUGAACAUUUUUUCAAUAAUUCCUUUUUACU | 0.484
UGCCCCUCCUGUGCAGAAGGGAGCCUGCAUCCCUCCCUUCCUUUCUCUUACUGCCAUAGGAAAUUAUUUUAGGGGUUGGAGGUGGGACAAGCAGGCUUGUUUCCACCAAU | 0.479
UUCUUAAAGUGACAGUAUCCCUUAACCUGCCACCAGUGUCCACCCUCCGGCCCCCGUCUUGUAAAAAGGGGAGGAGAAUUAGCCAAACACUGUAAGCUUUUAAGAAAAAC | 1.66
UCUGCUGCCAGGAAGCACAGUUUAAAAAUGCUAGUCUGGAUACAGAGAUGUUUUUGUUGCAUUGUGUUCUCAUAGCCUAUGCACAUCCUUAUGUUCUUCUAAGUAAUGCC | 0.363
AACCCCACUGGGGUUGCCUUUUUAAAAAUUACUGCCAUUUCUCUGAGACCCGGGUUGAUUUGUGCUAUCUUGGGUCUUUGGCUUAAAUUAAUAGAUUUGUUCUGUGUUUG | 0.489

Series 3
Target: ATF5, bZIP domain (human)
Method: DHFR protein complementation
Matrix: yeast
Notes: single substitutions, most at no-binding floor
Baseline: wild-type JUN-FOS pair
Reading: higher = stronger binding
Starting sequence: JUN, bZIP domain (human); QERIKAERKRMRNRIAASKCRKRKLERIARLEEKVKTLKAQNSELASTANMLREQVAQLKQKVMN; partner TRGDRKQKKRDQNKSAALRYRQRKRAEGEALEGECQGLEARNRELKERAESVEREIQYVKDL
Substitution | binding fitness
N42Q | -1.42 natural log
A40P | -1.53 natural log
L38K | -1.48 natural log
E32H | -1.53 natural log
L45F | -1.48 natural log
R30W | -1.36 natural log
N42T | -1.34 natural log
S43H | -1.49 natural log

Series 4
Target: Rho-associated protein kinase 1 (ROCK1, Homo sapiens, UniProt Q13464)
Chain of UniProt Q13464 (whole entry, looked up): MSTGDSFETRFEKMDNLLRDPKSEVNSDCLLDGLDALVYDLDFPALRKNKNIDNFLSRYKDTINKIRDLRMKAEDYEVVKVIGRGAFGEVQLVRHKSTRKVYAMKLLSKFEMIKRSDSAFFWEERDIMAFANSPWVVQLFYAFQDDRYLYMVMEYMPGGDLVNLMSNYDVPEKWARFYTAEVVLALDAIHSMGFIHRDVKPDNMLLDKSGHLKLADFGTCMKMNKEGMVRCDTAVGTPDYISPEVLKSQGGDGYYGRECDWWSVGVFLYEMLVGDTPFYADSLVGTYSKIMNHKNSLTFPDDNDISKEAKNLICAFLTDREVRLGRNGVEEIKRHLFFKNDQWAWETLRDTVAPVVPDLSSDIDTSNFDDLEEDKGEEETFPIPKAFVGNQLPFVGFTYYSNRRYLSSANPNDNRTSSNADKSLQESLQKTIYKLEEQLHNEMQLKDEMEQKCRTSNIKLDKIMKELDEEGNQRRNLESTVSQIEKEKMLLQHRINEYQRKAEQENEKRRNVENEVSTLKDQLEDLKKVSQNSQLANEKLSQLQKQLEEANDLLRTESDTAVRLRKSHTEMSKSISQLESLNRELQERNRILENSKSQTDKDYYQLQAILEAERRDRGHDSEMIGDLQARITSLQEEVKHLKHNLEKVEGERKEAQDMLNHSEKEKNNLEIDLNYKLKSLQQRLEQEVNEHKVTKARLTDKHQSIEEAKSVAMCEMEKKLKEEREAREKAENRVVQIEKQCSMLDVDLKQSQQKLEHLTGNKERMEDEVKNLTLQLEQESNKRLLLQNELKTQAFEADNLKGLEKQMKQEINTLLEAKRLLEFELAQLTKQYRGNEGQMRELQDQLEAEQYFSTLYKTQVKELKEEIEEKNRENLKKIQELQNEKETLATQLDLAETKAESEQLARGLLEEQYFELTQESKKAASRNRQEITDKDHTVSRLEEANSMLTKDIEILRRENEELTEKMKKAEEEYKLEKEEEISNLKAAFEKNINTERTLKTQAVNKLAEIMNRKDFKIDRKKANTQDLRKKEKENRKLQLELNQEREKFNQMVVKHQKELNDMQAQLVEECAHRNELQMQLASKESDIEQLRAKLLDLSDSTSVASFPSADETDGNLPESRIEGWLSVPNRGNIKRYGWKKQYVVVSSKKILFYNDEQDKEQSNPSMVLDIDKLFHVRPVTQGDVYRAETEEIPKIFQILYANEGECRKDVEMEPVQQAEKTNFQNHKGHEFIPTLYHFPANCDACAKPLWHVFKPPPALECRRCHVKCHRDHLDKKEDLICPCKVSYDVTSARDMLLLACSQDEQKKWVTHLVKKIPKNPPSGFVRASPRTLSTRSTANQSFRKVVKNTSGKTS
Observed: enzyme activity
Mode: inhibitor
Concentration: 0.5 µM
Baseline: control
Compound | remaining activity [%]
COc1ccc(CNC(=O)Nc2ncc([N+](=O)[O-])s2)cc1 | 102
COc1cc2ncnc(Nc3ccc(Oc4ccccc4)cc3)c2cc1OC | 102
CN(C)c1ccc(C=C2C(=O)Nc3ccccc32)cc1 | 98.3
COc1cc2nccc(Oc3ccc(NC(=S)NC(=O)c4ccccc4C)cc3)c2cc1OC | 90.5
CO[C@H]1C[C@@H]2CC[C@@H](C)[C@@](O)(O2)C(=O)C(=O)N2CCCC[C@H]2C(=O)O[C@H]([C@H](C)C[C@@H]2CC[C@@H](O)[C@H](OC)C2)CC(=O)[C@H](C)/C=C(\C)[C@@H](O)[C@@H](OC)C(=O)[C@H](C)C[C@H](C)/C=C/C=C/C=C/1C | 103
Nc1ncnc2n[nH]c(Nc3ccc(F)cc3)c12 | 100
Cc1ccc(Nc2nccc(N(C)c3ccc4c(C)n(C)nc4c3)n2)cc1S(N)(=O)=O | 100
COc1ccc(C(=O)Nc2sc3c(c2C(N)=O)CCCC3)cc1OC | 107
CCOC(=O)c1c(C)[nH]c(/C=C2\C(=O)Nc3ccccc32)c1C | 99.1
O=C1NC(=O)C(c2cn(CCCn3ccnc3)c3ccccc23)=C1Nc1ccccc1 | 99.2
COc1ccc(OC)c2c(=S)c3ccccc3[nH]c12 | 97.8
OCC(O)CCON=C1C(c2c(O)[nH]c3ccccc23)=Nc2ccccc21 (stereo not drawn) | 101
Nc1[nH]nc2nc3ccccc3nc12 | 99
Cc1cccc(-c2[nH]c(C(C)(C)C)nc2-c2ccc3c(c2)OCO3)n1 | 101

A few entries again (series 2):
Sequence | RBNS enrichment (R)
CAACCUCUCUCUCUCUCUCUCACUGGGUGGAUAAAUUUGUGAGCCAACCAAGAAGGCUCAGCUGUCAUCACUUCAGAGAGGAAGGAAGAAUCUUCACUUAGCCUCAGACU | 0.386
UUGUAAAAGGACACCUUCACUGAAGCAAGUCGGAAAGUACAAUGAAAAUAAAUAUUUUUGGUAUUUAUUUAUGAAAUAUUUGAACAUUUUUUCAAUAAUUCCUUUUUACU | 0.484
UGCCCCUCCUGUGCAGAAGGGAGCCUGCAUCCCUCCCUUCCUUUCUCUUACUGCCAUAGGAAAUUAUUUUAGGGGUUGGAGGUGGGACAAGCAGGCUUGUUUCCACCAAU | 0.479
UUCUUAAAGUGACAGUAUCCCUUAACCUGCCACCAGUGUCCACCCUCCGGCCCCCGUCUUGUAAAAAGGGGAGGAGAAUUAGCCAAACACUGUAAGCUUUUAAGAAAAAC | 1.66
UCUGCUGCCAGGAAGCACAGUUUAAAAAUGCUAGUCUGGAUACAGAGAUGUUUUUGUUGCAUUGUGUUCUCAUAGCCUAUGCACAUCCUUAUGUUCUUCUAAGUAAUGCC | 0.363
AACCCCACUGGGGUUGCCUUUUUAAAAAUUACUGCCAUUUCUCUGAGACCCGGGUUGAUUUGUGCUAUCUUGGGUCUUUGGCUUAAAUUAAUAGAUUUGUUCUGUGUUUG | 0.489
